Experimental data gathered from unrelated publications.
Each numbered part is a random draw from the data of one study; scales do not carry over between parts. Substitutions count along the parent as printed.

Block 1
Target: Fragile X messenger ribonucleoprotein 1, C-terminal low-complexity region (Fmr1, Mus musculus, UniProt P35922)
Technique: RNA Bind-n-Seq
Molecule type: RNA
Medium: in vitro
Concentration: 200 nM
Notes: whole 134-nt RNA, ends assumed
With: 150 mM KCl
Relative to: input library
Direction: higher = stronger binding
Shared flanks, not repeated: GGGAGUUCUACAGUCCGACGAUC … UGGAAUUCUCGGGUGUCAAGG
With `AGUCCUGUGCUACACAUCGUAUGUACCGAAUCGGGUUUUGGGGUUUUGGGGUUUUGGAAAGUAUUAUGUUACGCCGUUCGGAUCUGCACU` the log2 enrichment was 0.0886.
For `AAGUCCUGUGCUACACAUCGUAUGUACCGAAUCGGGUUUUGGUUUUGGGUUUUGGGGAAAGUAUUAUGUUACGCCGUUCGGAUCUGCACU`, the log2 enrichment was -0.135.
`AAGUCCUGUGCUACACAUCGUAUGUACCGAAUCGGGGUUUGGGGUUUGGGUUUGGGAAAGUAUUAUGUUACGCCGUUCGGAUCUGCACUU` has a log2 enrichment of 0.785.
With `AAGUCCUGUGCUACACAUCGUAUGUACCGAAUCGGGGUGGGGUUUGGGGUUUGGGGAAAGUAUUAUGUUACGCCGUUCGGAUCUGCACUU` the log2 enrichment was 1.7.
With `CAAGUCCUGUGCUACACAUCGUAUGUACCGAAUCGGUUUUUUUGGAAAAAGGUGGAAAGUAUUAUGUUACGCCGUUCGGAUCUGCACUUC` the log2 enrichment was -0.696.
The log2 enrichment of `UGGGAGGUGGAUUUUGUUUAUUUUUUUAGCUCAUUUCCAGGGGUGGGAAUUUUUUUUUAAUAUGUAUCAUGAAUAAAGUUGUUUUUGAAA` is reported as -0.00297.
For `UGGGAGGUGGAUUUUGUUUAUUUUUUUAGCUCAUUUCCAGGGGUGGGAAUUUUUUUUUAAUAUGUGUCAUAAAUAAAGUUGUUUUUGAAA`, the log2 enrichment was 0.267.
`GUCCUGUGCUACACAUCGUAUGUACCGAAUCGUGUGUGUGUGUGUGUGUGUGUGUGUGUAAAGUAUUAUGUUACGCCGUUCGGAUCUGCA` has a log2 enrichment of 0.53.
`AGUCCUGUGCUACACAUCGUAUGUACCGAAUCGGGGAAAAAGGGGAAAGGGGAGGGGAAAGUAUUAUGUUACGCCGUUCGGAUCUGCACU` has a log2 enrichment of 0.331.
With `UCAAGUCCUGUGCUACACAUCGUAUGUACCGAAUCGGGCCGGGGCCGGGCCGGGGAAAGUAUUAUGUUACGCCGUUCGGAUCUGCACUUC` the log2 enrichment was 0.321.
`AAGUCCUGUGCUACACAUCGUAUGUACCGAAUCGGUUUUGGUUUUGGGGUUUUGGGGAAAGUAUUAUGUUACGCCGUUCGGAUCUGCACU` gave a log2 enrichment of -0.196.
The log2 enrichment of `UGUGCUACACAUCGUAUGUACCGAAUCGGGGAAAAAAAGGGGAAAAAAAGGGGAAAAAGGGGAAAGUAUUAUGUUACGCCGUUCGGAUCU` is reported as -0.142.
With `UUCGAAGAGGUUGUGUACCAGGCCAUGGGUGAGUGCCCGGGCCACCGAGGCCACGUGCCUCCACGAGGGGCUGCCUAUGCCCCACCCUGG` the log2 enrichment was -0.591.
`ACCAUGCAGGUGGGCAUCUUUGGGAAGUGGGGCAAGGGGGGGAUAGGGAGGGGGGUAACACUUUGGGAACGGGUGGUCCCAGGUCGUUUC` has a log2 enrichment of 0.68.

Block 2
Target: CCNB3, cyclin fold, Cln2 fusion (human)
Technique: yeast growth competition, sequencing
Medium: yeast
Notes: weak parent motif
Relative to: not given
Direction: higher = stronger binding
Starting sequence: ORC1 docking peptide (human); PRARKRLELGNLG
For `PRARKRLELGNLY [G13Y]`, “normalised enrichment score” read -0.0387.
`PRARKRLGLGNLG [E8G]`: “normalised enrichment score” 0.09.
Under “normalised enrichment score”, `PRARKRLELGYLG [N11Y]` is recorded as 0.74.
For `PRARKVLELGNLG [R6V]`, “normalised enrichment score” read 0.0702.
`PRARKRDELGNLG [L7D]`: “normalised enrichment score” 0.131.
`PRARKRLELGQLG [N11Q]`: “normalised enrichment score” -0.38.
`PRARKREELGNLG [L7E]` — result for “normalised enrichment score”: 0.36.
Under “normalised enrichment score”, `PRARKKLELGNLG [R6K]` is recorded as -0.0139.
For `PRDRKRLELGNLG [A3D]`, “normalised enrichment score” read 0.0391.
Under “normalised enrichment score”, `PRAKKRLELGNLG [R4K]` is recorded as -0.0161.
`PRARKRLELGNCG [L12C]`: “normalised enrichment score” 0.308.
Under “normalised enrichment score”, `PRARKRLEFGNLG [L9F]` is recorded as 0.903.
Under “normalised enrichment score”, `PRARKRLHLGNLG [E8H]` is recorded as -0.352.
Under “normalised enrichment score”, `PNARKRLELGNLG [R2N]` is recorded as 0.224.
`PRARYRLELGNLG [K5Y]`: “normalised enrichment score” 0.0352.
Under “normalised enrichment score”, `PRARKRLEGGNLG [L9G]` is recorded as 0.0538.
`PRARKRLELGLLG [N11L]` — result for “normalised enrichment score”: 0.206.
Under “normalised enrichment score”, `PRARKRLELGNLQ [G13Q]` is recorded as -0.525.
For `PRARIRLELGNLG [K5I]`, “normalised enrichment score” read 0.539.
Under “normalised enrichment score”, `PRARQRLELGNLG [K5Q]` is recorded as -0.0249.
Under “normalised enrichment score”, `PRARKRLELGNIG [L12I]` is recorded as 0.216.
`PEARKRLELGNLG [R2E]` — result for “normalised enrichment score”: 0.527.
For `PRARKFLELGNLG [R6F]`, “normalised enrichment score” read 0.56.
Under “normalised enrichment score”, `PRARKRLELGNTG [L12T]` is recorded as 0.282.
`PRARKRLELGNLT [G13T]` — result for “normalised enrichment score”: -0.0251.

Block 3
Target: Phosphate system positive regulatory protein PHO4, full length, GST-tagged (PHO4, Saccharomyces cerevisiae, UniProt P07270, residues 1-312)
Technique: competition protein-binding microarray
Molecule type: double-stranded DNA, one strand shown
Medium: in vitro
Concentration: 2 µM
Notes: whole 60-bp probe, lowest competitor level
With: Cbf1 competitor, 0.05 µM
Direction: higher = stronger binding
Shared flanks, not repeated: … GTCTTGATTCGCTTGACGCTGCTG
Construct (chain): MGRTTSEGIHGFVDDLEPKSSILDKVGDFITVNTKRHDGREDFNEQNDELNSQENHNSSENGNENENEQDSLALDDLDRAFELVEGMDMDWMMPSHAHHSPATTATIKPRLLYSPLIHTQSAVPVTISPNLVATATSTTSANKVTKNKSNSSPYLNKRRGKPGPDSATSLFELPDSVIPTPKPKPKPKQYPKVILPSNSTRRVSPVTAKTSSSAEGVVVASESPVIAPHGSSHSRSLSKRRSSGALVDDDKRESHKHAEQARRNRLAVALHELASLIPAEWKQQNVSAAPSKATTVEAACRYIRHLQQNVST
`CGACTGAAAAACTCAAACGTGCTTTACCGCCAAGCA` gave a fluorescence intensity of 11700 a.u.
With `GTCTTGTCTCATTGACTCGTGGGTGTCCCCACTTCA` the fluorescence intensity was 10300 a.u.
For `CTTTCCCGATCTTTTCACGTGAAGTTAGCACATTTG`, the fluorescence intensity was 9700 a.u.
The fluorescence intensity of `ATCCGATTGGATGGACACATGCGATTCAACGCCGCT` is reported as 8580 a.u.
`CGGGGTTAAGTTTACCACGTGTTTTGCTTGCAGCAG` gave a fluorescence intensity of 17400 a.u.
For `CTAACGAAGGTTTGACAGGTGGGTGACAAGCCAAGT`, the fluorescence intensity was 5680 a.u.
With `CATACCCAACCTTGAGGGGTGGGTGAAGATATTTGT` the fluorescence intensity was 3820 a.u.
With `CTTTCCCGATCTTGAATCGTGGGTGTAGCACATTTG` the fluorescence intensity was 7690 a.u.
`GTCTTGTCTCATTGTCGCGTGGGTGTCCCCACTTCA` gave a fluorescence intensity of 8290 a.u.
With `CAAGAGTTCGCGGTATACGTGCGGACCTAAACGAGG` the fluorescence intensity was 7110 a.u.
The fluorescence intensity of `CTAACGAAGGTTTTTCACGTGCGTTACAAGCCAAGT` is reported as 14500 a.u.
For `TTCGCCCACAAAAGTTGCGTGCCGATCTAGTTCCAG`, the fluorescence intensity was 6860 a.u.
For `ATGCAATTTTTTCACCACGTGCTAATTCTCTTTGTT`, the fluorescence intensity was 21500 a.u.

Block 4
Target: ABI1, truncated, D143A, DHFR fusion (Arabidopsis thaliana)
Technique: DHFR PCA, deep sequencing
Medium: yeast
Notes: methotrexate growth selection, single substitutions
With: (+)-ABA 0.032 µM
Relative to: wild-type fitted maximum
Direction: higher = stronger binding
Starting sequence: PYL1, truncated, DHFR fusion (Arabidopsis thaliana); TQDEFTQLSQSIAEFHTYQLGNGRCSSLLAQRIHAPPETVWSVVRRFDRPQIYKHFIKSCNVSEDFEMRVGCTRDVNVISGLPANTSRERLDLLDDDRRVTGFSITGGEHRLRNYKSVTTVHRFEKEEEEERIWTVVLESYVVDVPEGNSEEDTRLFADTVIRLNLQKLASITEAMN; partner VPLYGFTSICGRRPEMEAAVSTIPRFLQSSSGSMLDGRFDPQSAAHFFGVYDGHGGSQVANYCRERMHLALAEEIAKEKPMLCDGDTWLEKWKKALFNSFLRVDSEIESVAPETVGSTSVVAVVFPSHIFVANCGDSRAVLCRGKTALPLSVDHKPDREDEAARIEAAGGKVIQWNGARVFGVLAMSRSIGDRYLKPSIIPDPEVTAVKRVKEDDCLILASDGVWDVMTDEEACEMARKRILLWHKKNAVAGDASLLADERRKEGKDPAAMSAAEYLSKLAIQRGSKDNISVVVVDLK
For `V137W`, “relative binding score” read 3.65%.
`R24C` — result for “relative binding score”: 5.79%.
For `D159E`, “relative binding score” read 1.41%.
Under “relative binding score”, `R45P` is recorded as 0.905%.
`R163S`: “relative binding score” 14.1%.
For `S42P`, “relative binding score” read -6.8%.
Under “relative binding score”, `S171H` is recorded as 22.4%.
For `L91Q`, “relative binding score” read -5.78%.
For `A13E`, “relative binding score” read 41.5%.
For `R111V`, “relative binding score” read 12.7%.
`D96C`: “relative binding score” 0.684%.

Block 5
Target: OGT, full length, His-tagged (human)
Technique: phage display, sequencing
Medium: in vitro
Concentration: 1 µg OGT
Notes: single substitutions, 15-mer displayed peptide, unchanged parent 19.6
Relative to: input library
Direction: higher = stronger binding
Starting sequence: peptide; TAPFYPPAYQIQVFK
`P6T` has a fold enrichment of 1.21 fold.
For `Y5N`, the fold enrichment was 0.824 fold.
With `T1I` the fold enrichment was 22.5 fold.
`F4I` gave a fold enrichment of 18.1 fold.
For `P6R`, the fold enrichment was 1.59 fold.
`P3D` has a fold enrichment of 26.4 fold.
The fold enrichment of `A2M` is reported as 23.3 fold.
`P6V` has a fold enrichment of 1.42 fold.
The fold enrichment of `P3A` is reported as 24.9 fold.
`P6D` has a fold enrichment of 0.632 fold.
The fold enrichment of `A2P` is reported as 15.4 fold.
With `P7W` the fold enrichment was 2.88 fold.
`F4R` gave a fold enrichment of 13.2 fold.
`A8S` has a fold enrichment of 3.54 fold.
With `T1L` the fold enrichment was 12.9 fold.
`T1Y` gave a fold enrichment of 14.1 fold.
The fold enrichment of `Y9V` is reported as 3.12 fold.
With `Q12K` the fold enrichment was 16.2 fold.
The fold enrichment of `I11Y` is reported as 0.813 fold.
`K15A` gave a fold enrichment of 4.79 fold.

Block 6
Target: Sal-like protein 4, full length isoform B (SALL4, Homo sapiens, UniProt Q9UJQ4-2, residues 1-616)
Technique: universal PBM
Molecule type: double-stranded DNA, one strand shown
Medium: in vitro
Concentration: not given
Notes: 8-mer, flanks averaged, mean of replicates
Direction: higher = stronger binding
For `CCGTACCG`, the E-score was -0.308.
For `CGAGAGCC`, the E-score was -0.273.
The E-score of `CAAATCAG` is reported as 0.211.
With `CTCCTTAC` the E-score was 0.0661.
`ACGAACTA` has an E-score of 0.0247.
With `GACAAACA` the E-score was -0.00912.
`ACGCCGAG` gave an E-score of -0.317.
`GTCAAAAA` has an E-score of 0.126.
`AGCAATCC` has an E-score of -0.151.
With `CGTTCGAA` the E-score was 0.0587.
`CCCGAGAG` has an E-score of -0.152.
`CGTAAATA` has an E-score of 0.308.
For `CATTAGAA`, the E-score was 0.176.
`TAATTACA` gave an E-score of 0.317.
With `CCATTAGA` the E-score was -0.105.
`CATACTGG` gave an E-score of -0.0356.

Mixed results
For `PhoQ, residues 284 288 289 292 302 303 NLGVHL`, the fold induction was 0.44 (PhoP, residues 12 14 15 18 19 NMSSL (Escherichia coli, UniProt P23836); Sort-seq, item: YFP reporter; E. coli; PhoQ-PhoP variant library, with: 10 µM Mg2+; relative to: high Mg2+ state, higher = stronger signaling).

Excerpt of the above (block 5):
With `T1L` the fold enrichment was 12.9 fold.
For `Y5N`, the fold enrichment was 0.824 fold.
`F4I` gave a fold enrichment of 18.1 fold.
For `P6R`, the fold enrichment was 1.59 fold.
The fold enrichment of `A2M` is reported as 23.3 fold.
The fold enrichment of `A2P` is reported as 15.4 fold.
`P6V` has a fold enrichment of 1.42 fold.
`F4R` gave a fold enrichment of 13.2 fold.
`P6T` has a fold enrichment of 1.21 fold.
